Measured values pooled from the literature.
Numbered parts are unrelated; each lists some results of a single study. Changes are numbered by the printed parent chain.

Study 1 — technique: DHFR PCA, dose-response; matrix: yeast; setting: Hill fit, mean, not affinity; added: (+)-ABA, dose series; reading: lower = more sensitive
Target: ABI1, truncated, D143A, DHFR fusion (Arabidopsis thaliana, UniProt P49597)
Parent: PYL1, truncated, DHFR fusion (Arabidopsis thaliana, UniProt Q8VZS8); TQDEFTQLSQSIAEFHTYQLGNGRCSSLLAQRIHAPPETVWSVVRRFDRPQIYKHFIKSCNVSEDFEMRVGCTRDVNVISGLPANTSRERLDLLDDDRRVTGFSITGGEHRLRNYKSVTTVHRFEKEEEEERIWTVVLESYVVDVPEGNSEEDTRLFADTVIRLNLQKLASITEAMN
Change	ABA EC50 [µM]
G108N	178
D48N	27
S26M	7.63
H122G	392
T120W	637
G71S	72.6
I133P	0.865
E67V	2.17
R163K	2.99
V100I	2.15
Q7A	1.73
S104C	27.6
L93V	1.6
L82P	33.5
Q7V	2.16
R123L	4.81
G148E	12.2
F66A	4.08
A30W	2.28
S26E	57.2

Study 2 — target: CCNA2, cyclin fold, Cln2 fusion (human); technique: yeast growth competition, sequencing; matrix: yeast; setting: strong parent motif; reference: not given; reading: higher = stronger binding
Parent: PKN2 docking peptide (human); VSAVRKLDFSDTM; partner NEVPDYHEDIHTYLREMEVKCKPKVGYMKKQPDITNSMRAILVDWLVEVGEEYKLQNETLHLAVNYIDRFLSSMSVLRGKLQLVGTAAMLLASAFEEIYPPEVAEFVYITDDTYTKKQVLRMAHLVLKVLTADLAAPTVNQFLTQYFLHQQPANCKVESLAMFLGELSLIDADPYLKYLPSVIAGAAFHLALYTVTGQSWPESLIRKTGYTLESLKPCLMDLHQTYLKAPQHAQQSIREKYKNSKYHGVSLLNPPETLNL
Change	normalised enrichment score
D8M	4.73
S2G	5.68
L7M	0.581
S10W	5.29
K6W	3.72
V4N	5.13
D11T	5.37
D11P	5.26
D8G	2.41
A3K	1.88
L7K	0.219
S10R	5.3
D8T	4.82
T12A	5.57
K6Y	4.2
T12M	5.2
K6E	3.41
V4D	0.618
D11N	5.48
D11H	4.61
S10G	5.48
T12C	4.74
R5G	0.652

Study 3 — target: UBE2L3 UBC core domain (UniProt P68036); technique: yeast two-hybrid; matrix: yeast; setting: mostly zero background; reference: not given; reading: higher = stronger interaction
Sequence of UniProt P68036 (whole entry, looked up): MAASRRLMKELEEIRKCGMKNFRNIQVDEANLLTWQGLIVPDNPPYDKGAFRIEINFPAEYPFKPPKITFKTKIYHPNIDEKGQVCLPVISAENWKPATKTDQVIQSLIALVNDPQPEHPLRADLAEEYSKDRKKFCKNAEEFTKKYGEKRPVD
B1: BFAR RING domain (UniProt Q9NZS9); chain GPQISVSEFSCHCCYDILVNPTTLNCGHSFCRHCLALWWASSKKTECPECREKWEGFPKVS
B2: MARCHF1 RING domain (UniProt Q8TCQ1); chain TAPRSQSRLSVCPSTQDICRICHCEGDEESPLITPCRCTGTLRFVHQSCLHQWIKSSDTRCCELCKYDFIMETKLKPLRKWE
B3: HLTF RING domain (UniProt Q14527); chain LILSSGSDEECAICLDSLTVPVITHCAHVFCKPCICQVIQNEQPHAKCPLCRNDIHEDNLLE
B4: TRIM41 RING domain (UniProt Q8WV44); chain PVQTLQEEAVCAICLDYFTDPVSIGCGHNFCRVCVTQLWGGEDEEDRDELDREEEEEDGEEE
B5: RNF182 RING domain (UniProt Q8N6D2); chain AESQASDELECKICYNRYNLKQRKPKVLECCHRVCAKCLYKIIDFGDSPQGVIVCPFCRFETCLPDDEV
B6: ZMYND11 RING domain (UniProt Q15326); chain DEIDWETENHDWYCFECHLPGEVLICDLCFRVYHSKCLSDEFRLRDSSSPWQCPVCRSIKKKNTNKQEM
B7: VPS8 RING domain (UniProt Q8N3P4); chain TRGLNPKQDYCSICLQQYKRRQEMADEIIVFSCGHLYHSFCLQNKECTVEFEGQTRWTCYKCSSSNKVGKLSE
B8: RUFY1 RING domain (UniProt Q96T51); chain QALKGHAWLKDDEATHCRQCEKEFSISRRKHHCRNCGHIFCNTCSSNELALPSYPKPVRVCDSCHTLLLQRCSSTAS
B9: TRIM11 RING domain (UniProt Q96F44); chain LSTNLQEEATCAICLDYFTDPVMTDCGHNFCRECIRRCWGQPEGPYACPECRELSPQRNLRP
B10: MKRN3 RING domain (UniProt Q13064); chain FAVQRGMDKVCGICMEVVYEKANPNDRRFGILSNCNHSFCIRCIRRWRSARQFENRIVKSCPQCRVTSELVIPSE
B11: RNF103 RING domain (UniProt O00237); chain WPADMLHCTECVVCLENFENGCLLMGLPCGHVFHQNCIVMWLAGGRHCCPVCRWPSYKKKQPY
Sequence	lacZ reporter activity
B1 (BFAR RING domain)	0
B2 (MARCHF1 RING domain)	0
LVKDFNPYITCYICKGYLIKPTTVTECLHTFCKTCIVQHFEDSNDCPRCGNQVHETNPLE (PCGF5 RING domain (UniProt Q86SE9))	0
DDVLTKDAGECVICLEELLQGDTIARLPCLCIYHKSCIDSWFEVNRSCPEHPAD (ZNRF1 RING domain (UniProt Q8ND25))	0
B3 (HLTF RING domain)	0
B4 (TRIM41 RING domain)	0
LEALSSDFLACKICLEQLRAPKTLPCLHTYCQDCLAQLADGGRVRCPECRETVPVPPEGV (TRIM56 RING domain (UniProt Q9BRZ2))	0
B5 (RNF182 RING domain)	0
B6 (ZMYND11 RING domain)	0
ASEEEFQFLRCQQCQAEAKCPKLLPCLHTLCSGCLEASGMQCPICQAPWPLGADTP (PML RING domain (UniProt P29590))	0
EIKEYKARLTCPCCNTRKKDAVLTKCFHVFCFECVRGRYEARQRKCPKCNAAFGAHDFHR (RNF40 RING domain (UniProt O75150))	0
B7 (VPS8 RING domain)	0
B8 (RUFY1 RING domain)	0
B9 (TRIM11 RING domain)	0
B10 (MKRN3 RING domain)	0
B11 (RNF103 RING domain)	0

Study 4 — technique: RNA Bind-n-Seq; form: RNA; matrix: in vitro; concentration: 100 nM; reference: input RNA pool; reading: higher = stronger binding
Target: RING finger protein unkempt homolog, zinc fingers 1-6, SBP tag (UNK, Homo sapiens, UniProt Q9C0B0, residues 30-357)
Sequence of UniProt Q9C0B0 (30-357, looked up): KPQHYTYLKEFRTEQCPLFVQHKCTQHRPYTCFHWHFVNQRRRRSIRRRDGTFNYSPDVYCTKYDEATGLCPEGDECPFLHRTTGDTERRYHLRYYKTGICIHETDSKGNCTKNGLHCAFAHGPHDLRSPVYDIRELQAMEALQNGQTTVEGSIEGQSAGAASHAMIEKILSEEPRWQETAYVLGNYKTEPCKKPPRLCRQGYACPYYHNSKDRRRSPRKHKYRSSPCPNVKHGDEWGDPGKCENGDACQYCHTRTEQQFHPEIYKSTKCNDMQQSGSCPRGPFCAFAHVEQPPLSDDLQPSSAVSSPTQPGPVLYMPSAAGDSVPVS
Setting: RNA with constant flanks, vertebrate orthologous sites, ends assumed
Constant ends, left off below: GGGAGUUCUACAGUCCGACGAUC … CAACAGAGGAUUGAGCAUCA
Sequence	bound/input enrichment [ratio]
GUUGUUUUGUACAGGGGUUCUCUGUACUGAUUUGUUGUGGUUAUAAAACAAUUAGCAAAACAGCGGACAUCUGUAUUUAUUUUCUAUUCCAUUACCUCUCUGCUUCAUGUUUUUCCUUCU	0.992
GCCGUCUGAUUGGAUAAAGACCGUCCCAAGUUACAACCAAACAAACAGUUCAAUGGACUUUAGAAAUUAUAUGAUGCGAGAUGAAAAUCUGGAACCACUGCCCAAAAACUGGGAGAUGGC	0.636
GAAAAUGGCUUCUGCUCUAUUAAAAAGUAAAAAUUGUCCUCCAAAUAUAAAACUCCUUAAUAGAUAUUUUUGAAAUUAGAAUCUUUAAAUUUUAUAAAUCAGCUGUUGCCACUACACAAC	4.46
CUGUGUGUUGGUGCAGAGUGCUCUGUACCAGUGCUCAUCAUCCUUCAUACCAACUAUCCCUCGUUGUAGGAAUUUAAUAUUUUUAAAAGUUUUACAUUGCUGUAUAUUCAAAGAUUUGUU	0.477
CACAUCUGGUGAUAUUUGGCCUGGCCUCUCAGCUUAUGAUAAUAGUCCCAGAUCACCCCAUAGUCCUUCACCUAUUGCUACACCACCUAGUCAGAGUUCAUCUUGCUCUGAUGCCCCCAU	1.02
UUGGGACCAGCUCUCUGAAUAGGAAUAGUAGUAAAAAAAACAAGCAAAAUGAUAUUUGUAUAGAAAAAACAGAAGUCAAAUCAUGUAAAGUAAAUGUUGCCAGUGUUCCAGGCCCUAAAG	1.15
AUUCAAACCUGUGGUGCCCUGGCCUCAUGUUGAAGGAGUAGAAGUGGACUUAGAAUCUAUUAGAAGAAAAAACAAGGCCAAAAAAGAACAGGAGCGCCAUGCUGGAGGAGAUUCCCAAAA	0.522
UUACAGUCAUUGAUGGACUCUAUUUUUUUAUUAUUACUUGGACCUUGGUCGUUUUUAUACUAGCAAAAUGUCUUGUUUUGAUUUGUGUUUUGGUUUUUGUUUUGUUUUGUUUUGUUUUUG	1.77
UUUUAUUGAUCAGGUCUGUAAAUGUGUACUAAAAAAAUCAGAGUUUAUUUAUAAACAGAAUAGUUUAUUUAAAGAGAAGGUCUUUCUUUAUUGAUAUUCUGGUAUGCAUUAAUUCCAUUU	0.222
AAUCAUGGAGGAAAAGCUAUUAGAACAAUUUCAUGAUGUUGAUAUGAGUUUAUUUUUAGUUCAUUAGUUUAGAAAUUUUAGGGUUCUUGUUUAGCAACAAUAGCAACUAACUGUUAAGUA	1.53
CUUCCCCCAACUUCAGUUUUUCAGGUUGUAGCUCAUCCAUCUUUUCUUCUUCCCCUCCUCUCACUGUUGCUUUCUUUUCCUUUCUGUCUGCCCAACUCCAGACAUAUGAGCUCUUCCCCU	1.06

Study 5 — target: JUN, bZIP domain (human); technique: DHFR protein complementation; matrix: yeast; reference: wild-type JUN-FOS pair; reading: higher = stronger binding
Setting: single substitutions, most at no-binding floor
Parent: JUN, bZIP domain (human); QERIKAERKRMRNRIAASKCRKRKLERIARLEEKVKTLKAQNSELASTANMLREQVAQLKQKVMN
Change	binding fitness [natural log]
L38E	-1.42
V35D	-1.39
E54P	-1.22
L52C	-1.39
L38P	-1.33
L31P	-1.42
L52H	-1.31
K39P	-1.27
L38W	-1.3
I28D	-1.27
L38N	-1.28
K36P	-1.31
L45R	-1.27
M51P	-1.33
Q55P	-1.39

Repeated from above (study 4):
Sequence	bound/input enrichment [ratio]
UUGGGACCAGCUCUCUGAAUAGGAAUAGUAGUAAAAAAAACAAGCAAAAUGAUAUUUGUAUAGAAAAAACAGAAGUCAAAUCAUGUAAAGUAAAUGUUGCCAGUGUUCCAGGCCCUAAAG	1.15
UUACAGUCAUUGAUGGACUCUAUUUUUUUAUUAUUACUUGGACCUUGGUCGUUUUUAUACUAGCAAAAUGUCUUGUUUUGAUUUGUGUUUUGGUUUUUGUUUUGUUUUGUUUUGUUUUUG	1.77
CUUCCCCCAACUUCAGUUUUUCAGGUUGUAGCUCAUCCAUCUUUUCUUCUUCCCCUCCUCUCACUGUUGCUUUCUUUUCCUUUCUGUCUGCCCAACUCCAGACAUAUGAGCUCUUCCCCU	1.06
CUGUGUGUUGGUGCAGAGUGCUCUGUACCAGUGCUCAUCAUCCUUCAUACCAACUAUCCCUCGUUGUAGGAAUUUAAUAUUUUUAAAAGUUUUACAUUGCUGUAUAUUCAAAGAUUUGUU	0.477
GUUGUUUUGUACAGGGGUUCUCUGUACUGAUUUGUUGUGGUUAUAAAACAAUUAGCAAAACAGCGGACAUCUGUAUUUAUUUUCUAUUCCAUUACCUCUCUGCUUCAUGUUUUUCCUUCU	0.992
CACAUCUGGUGAUAUUUGGCCUGGCCUCUCAGCUUAUGAUAAUAGUCCCAGAUCACCCCAUAGUCCUUCACCUAUUGCUACACCACCUAGUCAGAGUUCAUCUUGCUCUGAUGCCCCCAU	1.02
GAAAAUGGCUUCUGCUCUAUUAAAAAGUAAAAAUUGUCCUCCAAAUAUAAAACUCCUUAAUAGAUAUUUUUGAAAUUAGAAUCUUUAAAUUUUAUAAAUCAGCUGUUGCCACUACACAAC	4.46
AUUCAAACCUGUGGUGCCCUGGCCUCAUGUUGAAGGAGUAGAAGUGGACUUAGAAUCUAUUAGAAGAAAAAACAAGGCCAAAAAAGAACAGGAGCGCCAUGCUGGAGGAGAUUCCCAAAA	0.522
